Measured values from different studies.
Compare with care: the assays were run in different laboratories. ± marks the error that the study gave. Where no end group is shown, it is not given here. [ ]: non-standard residue; d: D form.

COc1cc(N2CCC(N3CCN(C)CC3)CC2)ccc1Nc1ncc(Cl)c(Nc2ccccc2S(=O)(=O)C(C)C)n1
therapeutic window (NIH3T3 in HEY/NIH microtissues; fibroblast toxicity; 168 h, chronic toxicity, unit not given; baseline: AC50 ATP over AC50 NanoLUC, day 7): 32

NC(=O)c1ccc(-c2nc(-c3ccc4c(c3)OCO4)c(-c3ccccn3)[nH]2)cc1
reporter activity (HepG2 cells; reporter gene, inhibitor, item: SBE4-luciferase; 10 µM, 8 h, added: activin A): decreased

CCC(CC)(CC)c1cc(-c2ccc(/C=C/C(=O)O)cc2Cl)ccc1O
inhibition (KG-1; cell proliferation; 5 µM, 48 h): 0%

[Aib]VIA (Aib = CC(C)(N)C(=O)O)
cell viability (PC-12; protection from Aβ1–42 toxicity, MTT; concentration not given, 6 h, Aβ to peptide ratio 1:5, added: Aβ1–42 2 µM; baseline: untreated cells): 72.7%

O=c1[nH]c2ccccc2nc1/C=C/c1cccs1
IC50 (B16-F10; cell growth or viability, MTT; 72 h): 12500 nM

COc1cc(OC)cc(-c2n[nH]nc2-c2cc3ccccc3s2)c1
GI50 (Hs-578T; cell growth or viability; 48 h): < 100 nM

Cc1ccc(-c2cn3cc(C)ccc3n2)cc1
viability (human pluripotent stem cells; MTT; low nanomolar, 7 days, single cell expansion; baseline: Y-27632 (ROCK inhibitor)): ≤ 4 fold

VV[dI]A (D-Ile3)
cell viability (PC-12; protection from Aβ1–42 toxicity, MTT; concentration not given, 6 h, Aβ to peptide ratio 1:5, added: Aβ1–42 2 µM; baseline: untreated cells): 70%

C/C(=N\N=C1/NC(=O)/C(=C\c2ccc(Cl)cc2)S1)c1ccccn1
inhibition (HEp-2; cell growth or viability, SRB; 100 µg/mL, 48 h): 73.7%

Cc1ccc(/C=C/[C@]2(O)CC[C@H]3[C@@H]4CCc5cc(O)ccc5[C@H]4CC[C@@]32C)cc1
relative stimulatory activity (Ishikawa; alkaline phosphatase induction, agonist; concentration not given, 3 d; baseline: estradiol): 5.5 ± 0.7%

C/C(=N\NC(N)=S)c1ccccn1
inhibition (HEp-2; cell proliferation, SRB; 100 µg/mL, 48 h): > 75%

Cc1ccc(/C=N/NC(=O)c2ccccc2Oc2ccccc2)o1
therapeutic window (NIH3T3 in HEY/NIH microtissues; fibroblast toxicity; chronic toxicity, unit not given; baseline: AC50 ATP over AC50 NanoLUC, day 7): 0.126

VV[dL]A (D-Leu3)
cell viability (PC-12; protection from Aβ1–42 toxicity, MTT; concentration not given, 6 h, Aβ to peptide ratio 1:5, added: Aβ1–42 2 µM; baseline: untreated cells): 70.6%

C[C@H](CS)C(=O)N1CCC[C@H]1C(=O)O
active force (hiPSC-derived 3D engineered cardiac tissue; contractility; serum-free medium; concentration not given, 15 min, paced at 1 Hz; baseline: time-matched vehicle): no effect

Cc1ccc(C(=O)Nc2ccc(CN3CCN(C)CC3)c(C(F)(F)F)c2)cc1C#Cc1cnc2cccnn12
GI50 (K562 K562-T315I; 48 h): ~2.79 nM

CC[C@H](C)C(=O)O[C@H]1C[C@H](O)C=C2C=C[C@H](C)[C@H](CC[C@@H](O)C[C@@H](O)CC(=O)O)[C@H]21
active force (hiPSC-derived 3D engineered cardiac tissue; contractility; serum-free medium; concentration not given, 15 min, paced at 1 Hz; baseline: time-matched vehicle): no effect

CSVTCR
adherent cells (B16-F10; peptide; 2 µg coated per well, 30 to 60 min; baseline: thrombospondin-coated wells): 92%

CN(CCOc1ccc(CC2SC(=O)NC2=O)cc1)c1ccccn1 (racemic)
osteoblast differentiation (primary bone marrow MSCs; item: CFU-OB and osteoblast markers; 1 µM): decreased

VV[dP]A (D-Pro3)
cell viability (PC-12; protection from Aβ1–42 toxicity, MTT; concentration not given, 6 h, Aβ to peptide ratio 1:10, added: Aβ1–42 2 µM; baseline: untreated cells): 76.3%

AKERLEAKHRERMSQVM
growth-promoting activity (A-1 fibroblasts; cell number increase; peptide; concentration not given, 3 d, 10% FCS; baseline: basal increase): active

COc1cc2c(Nc3ccc(Br)cc3F)ncnc2cc1OCC1CCN(C)CC1
activity call (human iPSC-derived cardiomyocytes; calcium transient decay-rise ratio; up to 100 µM, population median of 5 donors): inactive

Oc1cc(O)c2cc(O)c(-c3cc(O)c(O)c(O)c3)[o+]c2c1
VEGF-A165b/VEGF-A165a ratio (human podocytes; RT-PCR or Western blot, item: VEGF-A165b and VEGF-A165a; normal glucose; 10 µg/mL, 48 h): 2.96

O=NN(CCCl)C(=O)NCCCl
viability (U-87 MG; cell growth or viability, WST-1; 500 µM, 48 h): 11.6%

CC(C)C[C@H](NC(=O)[C@H](CCc1ccccc1)NC(=O)CN1CCOCC1)C(=O)N[C@@H](Cc1ccccc1)C(=O)N[C@@H](CC(C)C)C(=O)[C@@]1(C)CO1
therapeutic window (NIH3T3 in SKOV/NIH microtissues; fibroblast toxicity; 168 h, chronic toxicity, unit not given; baseline: AC50 ATP over AC50 NanoLUC, day 7): 10.1

N#CC(=C(/N)Sc1ccccc1N)/C(C#N)=C(/N)Sc1ccccc1N
firing duration (rat lamina I NK1R neurons; spinal cord slices; concentration not given, added: substance P): 3.2 ± 0.8 min

c1cncc(CN2CCC(n3ncc4c(N5CCOCC5)nc(-c5ccc6[nH]ccc6c5)nc43)CC2)c1
therapeutic window (NIH3T3 in HEY/NIH microtissues; fibroblast toxicity; chronic toxicity, unit not given; baseline: AC50 ATP over AC50 NanoLUC, day 7): 3.49

Cc1cccc(/C=C/[C@]2(O)CC[C@H]3[C@@H]4CCc5cc(O)ccc5[C@H]4CC[C@@]32C)c1
relative stimulatory activity (Ishikawa; alkaline phosphatase induction, agonist; concentration not given, 3 d; baseline: estradiol): 5 ± 1.4%

Oc1ccc(-c2nc(-c3ccncc3)c(-c3ccc(F)cc3)[nH]2)cc1
mRNA level (iPSC-derived intestinal progenitor cells; item: villin 1; concentration not given; baseline: DMSO): increased

N#Cc1ccc(-c2csc(NN=Cc3c(F)c(F)c(F)c(F)c3F)n2)cc1
inhibition (HCT-116; colony formation; 5 µM, 24 h): 5 to 50%

C#C[C@@]1(O)[C@@H](CO)O[C@@H](n2cc(I)c3c(N)ncnc32)[C@@H]1O
GI50 (U-251; cell growth or viability, SRB; 48 h): 74 nM

[dA]VIA (D-Ala1)
cell viability (PC-12; protection from Aβ1–42 toxicity, MTT; concentration not given, 6 h, Aβ to peptide ratio 1:5, added: Aβ1–42 2 µM; baseline: untreated cells): 70%

CC[C@H](C)[C@H](NC(=O)[C@@H](NC(=O)[C@@H](N)C(C)C)C(C)C)C(=O)N[C@H](C)C(N)=O
viability (PC-12; Aβ42-induced neurotoxicity, inhibitor, MTT; concentration not given, 6 h, 37 °C, peptide to Aβ42 1:2, added: Aβ42 2 µM; baseline: untreated cells): 80.2%

CCN1C(=O)/C(=C\c2ccc(OC)cc2)S/C1=N/N=C(\C)c1ccccn1
inhibition (HEp-2; cell growth or viability, SRB; 100 µg/mL, 48 h): 74.7%

CC(=O)Oc1ccccc1C(=O)O
active force (hiPSC-derived 3D engineered cardiac tissue; contractility; serum-free medium; concentration not given, 15 min, paced at 1 Hz; baseline: time-matched vehicle): no effect

COC(=O)[C@]12CCC(C)(C)C[C@H]1[C@H]1C(=O)C=C3[C@@]4(C)C=C(C#N)C(=O)C(C)(C)[C@@H]4CC[C@@]3(C)[C@]1(C)CC2
therapeutic window (NIH3T3 in HEY/NIH microtissues; fibroblast toxicity; 168 h, chronic toxicity, unit not given; baseline: AC50 ATP over AC50 NanoLUC, day 7): 0.12

CCn1c(C)c(/N=N/c2ccc(C)cc2)s/c1=N/N=C(\C)c1ccccn1
inhibition (HEp-2; cell growth or viability, SRB; 100 µg/mL, 48 h): 61.2%

COc1ccc2c(c1)CC[C@@H]1[C@@H]2CC[C@]2(C)[C@@H](NCCCCCCN3C(=O)C=CC3=O)CC[C@@H]12
PACAP-27-induced Ca2+ increase (NCI-H838; inhibitor, item: cytosolic Ca2+; 50 µM, added: PACAP-27 100 nM): inhibited

Cc1ccc(-c2ncn(-c3ccc(Nc4nccc(-c5cccc(N6CCOCC6)c5)n4)cc3)n2)cn1
therapeutic window (NIH3T3 in SKOV/NIH microtissues; fibroblast toxicity; chronic toxicity, unit not given; baseline: AC50 ATP over AC50 NanoLUC, day 7): 3.69

VCTGSC
adherent cells (B16-F10; peptide; 2 µg coated per well, 30 to 60 min; baseline: thrombospondin-coated wells): 2%

VV[dF]A (D-Phe3)
cell viability (PC-12; protection from Aβ1–42 toxicity, MTT; concentration not given, 6 h, Aβ to peptide ratio 1:5, added: Aβ1–42 2 µM; baseline: untreated cells): 73%

O=CCc1ccccc1
intracellular level ratio (PC6-3; tyrosine hydroxylase inhibition, HPLC; baseline: DOPAL): 2 fold

C[C@@H]1C[C@H]2[C@@H]3CCC4=CC(=O)C=C[C@]4(C)[C@@]3(F)[C@@H](O)C[C@]2(C)[C@@]1(O)C(=O)CO
mRNA level (iPSC-derived intestinal progenitor cells; item: ISX; concentration not given; baseline: DMSO): increased

V[dV]IA (D-Val2)
cell viability (PC-12; protection from Aβ1–42 toxicity, MTT; concentration not given, 6 h, Aβ to peptide ratio 1:10, added: Aβ1–42 2 µM; baseline: untreated cells): 70%

CCN1C(=O)C(C)S/C1=N/N=C(\C)c1ccccn1 (stereo not shown)
inhibition (HEp-2; cell growth or viability, SRB; 100 µg/mL, 48 h): 74.7%

V[dA]IA (D-Ala2)
cell viability (PC-12; protection from Aβ1–42 toxicity, MTT; concentration not given, 6 h, Aβ to peptide ratio 1:10, added: Aβ1–42 2 µM; baseline: untreated cells): 70%

methyl-β-cyclodextrin
aspiration pressure (K562 cells; micropipette aspiration; 10 mM, 15 min, 37 °C): 38 ± 9 pN/µm²

For quick reference, copied from above:
Oc1cc(O)c2cc(O)c(-c3cc(O)c(O)c(O)c3)[o+]c2c1
VEGF-A165b/VEGF-A165a ratio (human podocytes; RT-PCR or Western blot, item: VEGF-A165b and VEGF-A165a; normal glucose; 10 µg/mL, 48 h): 2.96

[dA]VIA (D-Ala1)
cell viability (PC-12; protection from Aβ1–42 toxicity, MTT; concentration not given, 6 h, Aβ to peptide ratio 1:5, added: Aβ1–42 2 µM; baseline: untreated cells): 70%

c1cncc(CN2CCC(n3ncc4c(N5CCOCC5)nc(-c5ccc6[nH]ccc6c5)nc43)CC2)c1
therapeutic window (NIH3T3 in HEY/NIH microtissues; fibroblast toxicity; chronic toxicity, unit not given; baseline: AC50 ATP over AC50 NanoLUC, day 7): 3.49

V[dV]IA (D-Val2)
cell viability (PC-12; protection from Aβ1–42 toxicity, MTT; concentration not given, 6 h, Aβ to peptide ratio 1:10, added: Aβ1–42 2 µM; baseline: untreated cells): 70%
